{"data": "Results collected from several papers"}
{"Structure (SMILES)": "O=C(c1nc2n(n1)[C@H](c1ccccc1)C[C@@H]2F)C1CC1", "test system": "human, plasma", "setting": "oral, 225 mg, single dose, fasted, healthy volunteers", "AUC(0-t)": "31600 ng·h/mL"}
{"Structure (SMILES)": "CCOc1ccc(Cc2cc([C@@H]3S[C@H](CO)[C@@H](O)[C@H](O)[C@H]3O)c(OC)cc2C)cc1", "test system": "male human, plasma", "setting": "oral, 15 mg, single dose, fasted, healthy volunteers", "AUC(0-t)": "5120 ng·h/mL"}
{"Structure (SMILES)": "CC[C@@H]1C(=O)N(C)c2cnc(Nc3ccc(C(=O)N[C@H]4CC[C@H](N5CCN(CC6CC6)CC5)CC4)cc3OC)nc2N1C(C)C", "test system": "human, plasma", "setting": "intravenous, 200 mg, patients, infusion", "AUC(0-t)": "3320 ng·h/mL"}
{"Structure (SMILES)": "CNc1nc(Nc2ccc(-n3cnc(C)n3)c(OC)c2)nc2c1CC[C@H]2c1ccc(F)cc1", "test system": "human, plasma", "setting": "oral, 30 mg, single dose, healthy volunteers", "AUC(0-t)": "895 ng·h/mL"}
{"Structure (SMILES)": "O=C(NCCN1CCCC1)c1cc(-c2ccc(CN3CCOCC3)cc2)nc2ccc(F)cc12", "test system": "human, blood", "setting": "oral, 600 mg, single dose, whole blood", "AUC(0-t)": "9510 ng·h/mL"}
{"Structure (SMILES)": "CCc1nc(C(N)=O)c(Nc2ccc(N3CCC(N4CCN(C)CC4)CC3)c(OC)c2)nc1NC1CCOCC1", "test system": "human, plasma", "setting": "oral, 40 mg, single dose, fasted, healthy volunteers", "AUC(0-t)": "1740 ng·h/mL"}
{"Structure (SMILES)": "Nc1nnc(CN[C@@H]2C[C@H]2c2ccc(OCc3ccccc3)cc2)o1", "test system": "human, plasma", "setting": "oral, 1 mg/day, multiple doses, steady state", "AUC(0-t)": "199 ng·h/mL"}
{"Structure (SMILES)": "CS(=O)(=O)n1cc2c(n1)CN([C@H]1CO[C@H](c3cc(F)ccc3F)[C@@H](N)C1)C2", "test system": "male human, plasma", "setting": "oral, 5 mg, single dose, fasted", "AUC(0-t)": "5.34 µM·h"}
{"Structure (SMILES)": "CN(C(=O)n1cnc(-c2ccc[n+]([O-])c2)c1)C1CCCCC1", "test system": "human, plasma", "setting": "oral, 40 mg, single dose", "AUC(0-t)": "8750 ng·h/mL"}
{"Structure (SMILES)": "Cc1c(Cl)c(C)[n+]([O-])c(Cl)c1-c1noc(-c2cc(O)c(O)c([N+](=O)[O-])c2)n1", "test system": "male human, plasma", "setting": "oral, 25 mg, single dose, fasted, healthy volunteers", "AUC(0-t)": "2130 ng·h/mL"}
{"Structure (SMILES)": "CC(C)(Sc1ccncc1-c1ccc(C#N)c2ccccc12)C(=O)O", "test system": "male human, plasma", "setting": "oral, 5 mg, single dose, fasted", "AUC(0-t)": "32.6 ng·h/mL"}
{"Structure (SMILES)": "CCCOc1ccc([C@H]2CNC(=O)N2c2ccc3[nH]cnc3c2)cc1", "test system": "human, plasma", "setting": "oral, 300 mg, multiple doses, twice daily, fasted", "AUC(0-t)": "5660 ng·h/mL"}
{"Structure (SMILES)": "CS(=O)(=O)n1cc2c(n1)CN([C@H]1CO[C@H](c3cc(F)ccc3F)[C@@H](N)C1)C2", "test system": "male human, plasma", "setting": "oral, 50 mg, single dose, fasted, healthy volunteers", "AUC(0-t)": "39.4 µM·h"}
{"Structure (SMILES)": "CCCCCN1C[C@H](O)[C@@H](O)[C@H](O)[C@@H]1CO", "test system": "human, plasma", "setting": "oral, 300 mg, single dose, fed, healthy volunteers", "AUC(0-t)": "11700 ng·h/mL"}
{"Structure (SMILES)": "Nc1ncc(-c2cnn(CCO)c2)c2scc(-c3ccc(NC(=O)Nc4cccc(F)c4)cc3)c12", "test system": "human, plasma", "setting": "oral, 240 mg, patients", "AUC(0-t)": "3980 ng·h/mL"}
{"Structure (SMILES)": "CNC(=O)c1ccc(-c2cnc3ncc(Cc4ccc5ncccc5c4)n3n2)cc1F", "test system": "human, plasma", "setting": "oral, 100 mg twice daily, multiple doses, steady state, patients", "AUC(0-t)": "3820 ng·h/mL"}
{"Structure (SMILES)": "CN(C)C/C=C/C(=O)Nc1cc2c(Nc3ccc(F)c(Cl)c3)ncnc2cc1O[C@H]1CCOC1", "test system": "human, plasma", "setting": "oral, 40 mg, multiple doses, once daily, steady state, patients", "AUC(0-t)": "498 ng·h/mL"}
{"note": "Repeated from above:"}
{"Structure (SMILES)": "CCCOc1ccc([C@H]2CNC(=O)N2c2ccc3[nH]cnc3c2)cc1", "test system": "human, plasma", "setting": "oral, 300 mg, multiple doses, twice daily, fasted", "AUC(0-t)": "5660 ng·h/mL"}
